Values quoted from earlier work that unrelated publications cite.
Compare with care: the assays were run in different laboratories.
UniProt Q6XUX3, sequence (whole entry, looked up): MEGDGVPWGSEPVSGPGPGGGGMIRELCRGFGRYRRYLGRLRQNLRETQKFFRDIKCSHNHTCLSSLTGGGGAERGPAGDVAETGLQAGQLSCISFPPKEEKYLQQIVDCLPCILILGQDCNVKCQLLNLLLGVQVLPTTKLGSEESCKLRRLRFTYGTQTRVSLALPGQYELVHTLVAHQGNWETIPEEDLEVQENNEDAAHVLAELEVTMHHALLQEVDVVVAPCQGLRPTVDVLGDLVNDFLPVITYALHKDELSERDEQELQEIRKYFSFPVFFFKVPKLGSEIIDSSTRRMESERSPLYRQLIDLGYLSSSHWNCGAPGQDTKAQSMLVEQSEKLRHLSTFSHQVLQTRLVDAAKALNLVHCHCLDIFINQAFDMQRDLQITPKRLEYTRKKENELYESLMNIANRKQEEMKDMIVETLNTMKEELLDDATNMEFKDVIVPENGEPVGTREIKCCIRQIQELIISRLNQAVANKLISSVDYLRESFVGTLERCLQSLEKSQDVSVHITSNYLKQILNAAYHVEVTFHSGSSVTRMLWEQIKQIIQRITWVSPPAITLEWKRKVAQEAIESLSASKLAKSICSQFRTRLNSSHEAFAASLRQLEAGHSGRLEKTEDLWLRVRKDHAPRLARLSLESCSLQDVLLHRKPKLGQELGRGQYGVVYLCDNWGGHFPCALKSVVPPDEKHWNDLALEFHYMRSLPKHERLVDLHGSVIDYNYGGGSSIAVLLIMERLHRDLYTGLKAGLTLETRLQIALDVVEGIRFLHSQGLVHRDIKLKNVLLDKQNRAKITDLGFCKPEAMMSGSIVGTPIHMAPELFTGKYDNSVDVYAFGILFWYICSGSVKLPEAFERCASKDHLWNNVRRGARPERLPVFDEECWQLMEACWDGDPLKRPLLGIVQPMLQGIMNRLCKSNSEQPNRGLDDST

CCOc1c([C@H](C)n2nc(C)c3c(N)ncnc32)cc(Cl)c(F)c1[C@@H]1CNC(=O)C1  terminal half-life (human; oral, fasted, steady state, geometric mean): ~10 h
CO[C@]1(C(=O)N[C@@H](C)c2ccc(-n3cc(F)cn3)nc2)CC[C@H](c2nc(C)cc(Nc3cc(C)[nH]n3)n2)CC1  terminal half-life (human; added: itraconazole): 28.3 h
CNS(=O)(=O)Nc1nccc(Cc2c(C)c3ccc(Oc4ncccn4)cc3oc2=O)c1F  terminal half-life (human; oral): ~60 h
Cc1cc(C)c(CNC(=O)c2cc(Cl)c3c(c2C)O[C@@](C)([C@H]2CC[C@H](N(C)C)CC2)O3)c(=O)[nH]1  terminal half-life (healthy human, fasted; oral, dose not given, single dose): ~20 h
CC1(C)CC[C@]2(NC(=O)C(C)(F)F)CC[C@]3(C)[C@H](C(=O)C=C4[C@@]5(C)C=C(C#N)C(=O)C(C)(C)[C@@H]5CC[C@]43C)[C@@H]2C1  terminal half-life (human, plasma): 57 h
Cc1cccc(F)c1N1CCC(N2Cc3cn(CC(C)(F)F)nc3N(Cc3ccccc3C(F)(F)F)C2=O)CC1  terminal half-life (human; 2.5 mg and above, single dose): 30 to 46 h
N#Cc1cccc(-c2ccc3ncc(-c4cc(F)cc(F)c4)c(N4CCC(N)CC4)c3c2)c1O  terminal half-life (healthy human; dose not given): 22 to 29 h
Cn1ncnc1[C@H]1c2n[nH]c(=O)c3cc(F)cc(c23)N[C@@H]1c1ccc(F)cc1  terminal half-life (human, plasma): ~90 h
Cc1cc(C)c(CNC(=O)c2cc(Cl)c3c(c2C)O[C@@](C)([C@H]2CC[C@H](N(C)C)CC2)O3)c(=O)[nH]1  terminal half-life (healthy human, plasma): ~20 h
C#C[C@]1(CO)O[C@@H](n2cnc3c(N)nc(F)nc32)C[C@@H]1O  terminal half-life (human, plasma): 50 to 60 h
Nc1cc(C(F)(F)F)c(-c2nc(N3CCOCC3)nc(N3CCOCC3)n2)cn1  remaining activity (DSTYK (Homo sapiens, UniProt Q6XUX3); enzyme activity; 10 µM; reference: untreated): 98%
